Results of several laboratories.
Numbered parts are unrelated; each lists some results of a single study. Changes are numbered by the printed parent chain.

Study 1 — target: CCND1, cyclin fold, Cln2 fusion (human); technique: yeast growth competition, sequencing; medium: yeast; notes: weak parent motif; baseline: not given; direction: higher = stronger binding; measurement: normalised enrichment score
Parent: PKMYT1 docking peptide (human); SFEPRNLLSLFED
E3A: 0.23
L10Q: 1.31
E12D: 0.998
E12N: 1.56
S9R: 0.93
N6T: 1.22
D13Q: 1.08
R5V: 1.4
F11A: 0.367
L10C: 0.715
L7S: 0.987
F11L: 0.766
L7W: 1.07
E3D: 0.935
S1K: -0.473
L8W: 1.11
E3T: 0.455
E12Y: 1.11
D13A: 0.961
F11Y: 1.3
E3R: -0.349
S1M: 0.274
S9C: 1.02
F2I: 0.397
S9D: 1.12

Study 2 — technique: protein-binding microarray; form: double-stranded DNA, one strand shown; medium: in vitro; concentration: 2200 nM top; notes: 60-bp whole probe; added: salmon DNA 0.4 mg/ml; baseline: random background probes; direction: higher = stronger binding; measurement: fitted relative affinity; shared flanks, not repeated: GCCTAGCAC … GTCTTGATTCGCTTGACGCTGCTG
Target: Interferon regulatory factor 7, full length, phosphomimetic (IRF7, Homo sapiens, UniProt Q92985, residues 1-503, S471D/S472D/S475D/S476D/S477D/S483D/S484D/S487D)
Chain of UniProt Q92985 (whole entry, unmodified, looked up): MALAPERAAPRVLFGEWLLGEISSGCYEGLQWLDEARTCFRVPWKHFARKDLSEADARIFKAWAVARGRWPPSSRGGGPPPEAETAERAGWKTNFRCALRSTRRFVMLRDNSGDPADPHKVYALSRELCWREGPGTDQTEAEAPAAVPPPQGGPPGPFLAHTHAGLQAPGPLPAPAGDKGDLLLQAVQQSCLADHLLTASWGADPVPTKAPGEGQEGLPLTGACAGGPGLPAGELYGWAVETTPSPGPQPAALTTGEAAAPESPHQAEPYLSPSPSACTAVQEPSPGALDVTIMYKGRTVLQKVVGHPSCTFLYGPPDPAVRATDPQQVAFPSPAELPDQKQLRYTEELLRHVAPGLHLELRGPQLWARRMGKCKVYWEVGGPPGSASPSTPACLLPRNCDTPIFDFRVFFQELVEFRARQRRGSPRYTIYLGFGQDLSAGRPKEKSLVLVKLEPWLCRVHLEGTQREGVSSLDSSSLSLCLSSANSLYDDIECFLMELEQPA
GACGATATCAGTATCGTGACGTGCTAG: 0.389 z-score
TCAAGTTTTCTTTTCATACTGTGCTAG: 3.8 z-score
TTAGAACTGGGGACAGGATTAGTGCTA: -0.453 z-score
TTAAATATCGGGTATCGATTAGTGCTA: -0.106 z-score
GACGAAGTGGGGACTGGAGACGTGCTA: -0.338 z-score
TCATTTCTCCTTTCGGAACTGTGCTAG: 4.3 z-score
TCACATGTCTGTGTCACACTGTGCTAG: 1.34 z-score
TGCCTTTTTTTTTTTTTCTGGTGCTAG: 1.55 z-score
GCATCGTAAGCAAAAATGATGTGCTAG: -0.297 z-score
GACGGACTGAACACTGGGGACGTGCTA: -0.469 z-score
TTAGGCATCCTTCTCCTTTAGTGCTAG: 0.418 z-score
TTAGGTATCGACGTTCGGTTAGTGCTA: 0.806 z-score
GACGATATCAGTATCGAGACGTGCTAG: 0.212 z-score
GACGGTCTCATTATCCTGACGTGCTAG: 0.874 z-score
GACGAACTGAGTCTCAAGACGTGCTAG: -0.218 z-score
GACGGTTTCCTTTTCCTCACGTGCTAG: 5.6 z-score

Study 3 — technique: RNA Bind-n-Seq; form: RNA; medium: in vitro; concentration: 100 nM; baseline: input RNA pool; direction: higher = stronger binding; measurement: bound/input enrichment
Target: RING finger protein unkempt homolog, zinc fingers 1-6, SBP tag (UNK, Homo sapiens, UniProt Q9C0B0, residues 30-357)
Chain of UniProt Q9C0B0 (30-357, looked up): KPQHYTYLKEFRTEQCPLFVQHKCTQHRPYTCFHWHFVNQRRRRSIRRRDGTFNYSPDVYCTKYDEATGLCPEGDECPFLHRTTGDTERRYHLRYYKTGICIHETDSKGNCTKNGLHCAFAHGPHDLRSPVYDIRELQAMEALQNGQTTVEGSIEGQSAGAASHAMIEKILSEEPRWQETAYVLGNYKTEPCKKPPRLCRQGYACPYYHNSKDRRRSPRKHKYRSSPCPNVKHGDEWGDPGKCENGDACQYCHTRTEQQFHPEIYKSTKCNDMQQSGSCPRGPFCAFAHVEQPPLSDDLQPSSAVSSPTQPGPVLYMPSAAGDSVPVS
Notes: RNA with constant flanks, vertebrate orthologous sites, ends assumed
Shared flanks, not repeated: GGGAGUUCUACAGUCCGACGAUC … CAACAGAGGAUUGAGCAUCA
AGUUAAUGAUGCUAUUGUGUUAGUAAACAAAAUUACUUAUCAGCAACUUUGUUUAUCAUACAAUAUUUUGCAUAAAACAAUUUGUAUACCAAGGCUUUUUAGUGGCCAUAAAUGGCUUUU: 0.343 ratio
UAUAAGAACUCUUGCAGUCUUAGAUGUUAUAAAAAUAUAUAUCUGAAUUGUAAGAGUUGUUAGCACAAGUUUUUUUUUUUUUUUUUUUUAAGCACUUGUUUUGGGUACAAGGCAUUUCUG: 0.926 ratio
UUCGCUGAGCGGCAGCCUGCCAUCAGUGGCCGACUCCCACUCCAGCCACUUCUCUGAGUUCAGCUGCUCCGACCUGGAGAGCAUGAAGACCUCGUGUAGCCACGGCUCCAGCGGUGGCGA: 0.248 ratio
UAUUCAAUUGAUUUAAAUUAUUUAGAUCAGAAGUUAUUACUGUGUAUGUUUACUUUCACGCAGCUUAUAUUUUUCAUCUGUUUUUGCAAAAUGUCAGUUGUGUGUGCUUCCUUAUGUACC: 0.149 ratio
AAUAGGUUUAAGCUUGUUUGCACAGUUUUUUUCCUCCAUUGGAGAUGGAAUUCAUUGCCUUAGGUCUUUUUAAUAGUAUAUUGUUAUUGUUGGGCUGGCUCUAUGCUUGAAAACCAGUUU: 1.94 ratio
CAGCUGAUUCGCUCAUCGGGAGAGCUGCACAUAUAGCUGUUCUUGAUUCAGAAAUCUUCUUAGAGAAAUUCUUUCUGGUUGCUGCCCUUAAAUAUUUUCAAUAGGAUAAAAACGCUGUUA: 0.801 ratio
AAAACUCAGGUAUUAUUUAUUUCGCAAUUAUCAAUUGUAUAAAUCUAAUUUAUUAUCAGAUGGUCAUUUAAAAGAAAAGAUUUUUACCUUGACAGGCACUUCCUUUCUUAGCUUCUCAUA: 0.379 ratio
ACACACAAGAUAUUUUAACUGUUUUAAAGUUACAAACAUGCUUUGCUUUUUGCAUUUAAAUAGAAUACUUUUAUAUUUUAAGUACUUCAGAUGUGUGGAGUUGUUAGUUUGCUCUUAUAA: 0.704 ratio
AACAACCCAAGGGUUCAGGACUGGUUUUACAAAUAUACCAAGUAGAUAUGGAACUAACAAUAGAAUUGGACAACCAAGACCAUGACGUACUGUGAUUUAUUUUUAUGAGGAAUAUGGACU: 0.676 ratio
CCUACAAUAAUGAAAACUUACAGGAAUUUUUUUAUUUUUCAUUUCCCCCUUAGGCAUACUUAGUCUUUUUUUCCCCAGGCAGAUGAUUCUGAGUGUGCGAGUGUGUGCACAUGUUACAGA: 1.76 ratio
ACCCCAGUGUGUGUACGUUCUUCACAUUCCUUUCUGUUGUGUUUGGGAGAAAAAGACUUCUCCGACUUUUCGAAGGUUCUCGAUUUAAUUCCAUGUUGUUUGGUUGCAUGAAGUUGCCCU: 0.225 ratio

Study 4 — technique: RNA Bind-n-Seq; form: RNA; medium: in vitro; concentration: 365 nM; baseline: no-protein control; direction: higher = stronger binding; measurement: RBNS enrichment (R)
Target: RNA binding protein fox-1 homolog 2, RRM domain, GST-SBP tag (RBFOX2, Homo sapiens, UniProt O43251-10, residues 100-194)
Notes: natural RNA segment, single round, ends assumed
Shared flanks, not repeated: GGGAGUUCUACAGUCCGACGAUC … UGGAAUUCUCGGGUGCCAA
Target sequence (chain): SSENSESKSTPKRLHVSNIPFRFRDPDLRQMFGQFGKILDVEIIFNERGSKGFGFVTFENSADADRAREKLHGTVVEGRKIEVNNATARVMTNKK
GGGAGCGCUUCCUGCAGCCGCUGAUGGCCCUGCUGUACCCUGACUGUGGCGGGGGCCGGCUCGACAGCCACCGGGCCUUUGUGGUCAAAUACGCACCGGGCCAGGACCUG: 0.309
UAAACCUCCAGCCACCAAGCCUGACGCCAGUCUCUUCUGAUCUGCAAGAUUUGGGCUGUGUGCAAGGUGGCUUUCUUUCCUGGUGGGGGAAGGGAGGGGCCGAGGCUAAU: 0.587
ACACUUGCCCCGCCCUCCCACACCUGCUUGGGAGGCCAGAGAGGCCAGACAAGCCGAGAGCCCCUUCUGUUGUGGGCAGCCUGGGUUUGCAGGCCUGCACAGGCUGGGGA: 4.62
AGCCUGGUCUCUGAGGUGCUUUCUAACAGCUGGAGGCACUUGUUCUGGGCUUUCCUUUGCCCUCAGUUUUUCACAGGUAGGUAGUAGCCAUGGAGGGCUGAAGCCCAGGC: 0.778
CAUGGCAAGCAGGGUGGCCUUGGACUUUGAUUUAGGGGAUCGUGCUUUGGCCUGGAAAAUAAGCACUGGCCUGCAUGCCUAGAACCUGAGUGAAGGCAGUCAACAUCCUA: 1.7
AAUUGCCAAGUGCCUAUGCAAACCAGCUUUAGGUCCCAAUUCGGGGCCUGCUGGAGUUCCGGCCUGGGCACCAGCAUUUGGCAGCACGCAGGCGGGGCAGUAUGUGAUGG: 2.44
UGUGUAUAUAUUGCACCUUGAGUUGUCAGAAGGUAGAAACUGAAAUAAACUAACUUUAAAAAAAAAAGUCUGUUUAAUUUUUAACACAUCCAUGAGGACUUUUUACAGAA: 0.584
CAUUCUAUACAAAACUGUGCUGUGACCUUGCGGUAGGCCUGGAUCUGGCAAAGAGAAUACAAAUGAAACCCCUUCUUUCUCUUUCCGUCCAACAACUCUGUAGAGCUCUC: 0.827
UUUGUGUGUAUCCCCUCCGUGAAAUCCAGCCAAUUAUCAGGGUAGAAGAUGGGUGCAUGAGAAUCUUGGCUCAGCCAAAGCCCCUUCAUGGAAAUACAAGCCAUAAAAUU: 0.924
AAAUUACUAAGCUUUUCCCAUAUGUUCUCGUACUUUCUCAAAUCCCUAUAAAGAAUUACUUGUUAUCUAUUAAAAAUCUCCUUUACCCAAAUCUGUAUUAUGGUUUCGCC: 1.55
AAGAUAGGAUCGGAGAUACCUGUAGUCUUCAGACCUUUAGUGCCUGUAUUUAUCCAUCAUUACUGAAGUAUUUGUUAACUAAGCUAGCAACAAAAUAAUUUCUGUACUUU: 0.468
AACAAAAUUGUGGUAUUCAUGACCCAUUUAAUUUACUGAAAAAUCAUAACUGCUGUCCUGCCUGCUCUCCUUGGGUUUCGGUUUUAAAAGCCUUUGUGGUUGAAAUGAAU: 0.228

For quick reference, copied from above (study 4):
CAUGGCAAGCAGGGUGGCCUUGGACUUUGAUUUAGGGGAUCGUGCUUUGGCCUGGAAAAUAAGCACUGGCCUGCAUGCCUAGAACCUGAGUGAAGGCAGUCAACAUCCUA: 1.7
AAUUGCCAAGUGCCUAUGCAAACCAGCUUUAGGUCCCAAUUCGGGGCCUGCUGGAGUUCCGGCCUGGGCACCAGCAUUUGGCAGCACGCAGGCGGGGCAGUAUGUGAUGG: 2.44
UGUGUAUAUAUUGCACCUUGAGUUGUCAGAAGGUAGAAACUGAAAUAAACUAACUUUAAAAAAAAAAGUCUGUUUAAUUUUUAACACAUCCAUGAGGACUUUUUACAGAA: 0.584
CAUUCUAUACAAAACUGUGCUGUGACCUUGCGGUAGGCCUGGAUCUGGCAAAGAGAAUACAAAUGAAACCCCUUCUUUCUCUUUCCGUCCAACAACUCUGUAGAGCUCUC: 0.827
